Measurements from different studies.
Lines come from different studies, so protocols differ. ± marks the error that the study gave.
TGFBR1: TGF-beta receptor type-1 (TGFBR1, Homo sapiens, UniProt P36897)
UniProt P36897, sequence (whole entry, looked up): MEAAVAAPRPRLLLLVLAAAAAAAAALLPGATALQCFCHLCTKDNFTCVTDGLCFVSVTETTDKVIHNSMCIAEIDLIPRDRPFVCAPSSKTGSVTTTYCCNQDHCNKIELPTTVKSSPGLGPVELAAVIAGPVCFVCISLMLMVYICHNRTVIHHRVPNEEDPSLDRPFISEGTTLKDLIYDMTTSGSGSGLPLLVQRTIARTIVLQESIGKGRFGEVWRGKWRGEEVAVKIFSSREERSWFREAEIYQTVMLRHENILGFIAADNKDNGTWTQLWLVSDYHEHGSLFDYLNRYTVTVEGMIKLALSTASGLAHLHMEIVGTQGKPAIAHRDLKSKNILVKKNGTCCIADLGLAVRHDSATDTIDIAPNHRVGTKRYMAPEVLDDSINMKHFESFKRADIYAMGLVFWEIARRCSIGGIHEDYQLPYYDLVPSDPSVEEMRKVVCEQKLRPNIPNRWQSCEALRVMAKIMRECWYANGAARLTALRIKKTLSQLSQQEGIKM
TYMS: Thymidylate synthase (TYMS, Homo sapiens, UniProt P04818)
UniProt P04818, sequence (whole entry, looked up): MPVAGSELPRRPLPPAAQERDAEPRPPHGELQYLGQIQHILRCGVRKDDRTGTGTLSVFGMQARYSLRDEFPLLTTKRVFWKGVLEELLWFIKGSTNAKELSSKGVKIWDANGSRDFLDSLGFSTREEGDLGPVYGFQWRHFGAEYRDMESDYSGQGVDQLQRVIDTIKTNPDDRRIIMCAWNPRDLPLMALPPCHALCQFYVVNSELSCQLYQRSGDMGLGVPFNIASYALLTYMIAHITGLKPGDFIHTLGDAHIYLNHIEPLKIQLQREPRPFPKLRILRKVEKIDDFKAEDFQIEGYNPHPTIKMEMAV
UniProt P07237, sequence (whole entry, looked up): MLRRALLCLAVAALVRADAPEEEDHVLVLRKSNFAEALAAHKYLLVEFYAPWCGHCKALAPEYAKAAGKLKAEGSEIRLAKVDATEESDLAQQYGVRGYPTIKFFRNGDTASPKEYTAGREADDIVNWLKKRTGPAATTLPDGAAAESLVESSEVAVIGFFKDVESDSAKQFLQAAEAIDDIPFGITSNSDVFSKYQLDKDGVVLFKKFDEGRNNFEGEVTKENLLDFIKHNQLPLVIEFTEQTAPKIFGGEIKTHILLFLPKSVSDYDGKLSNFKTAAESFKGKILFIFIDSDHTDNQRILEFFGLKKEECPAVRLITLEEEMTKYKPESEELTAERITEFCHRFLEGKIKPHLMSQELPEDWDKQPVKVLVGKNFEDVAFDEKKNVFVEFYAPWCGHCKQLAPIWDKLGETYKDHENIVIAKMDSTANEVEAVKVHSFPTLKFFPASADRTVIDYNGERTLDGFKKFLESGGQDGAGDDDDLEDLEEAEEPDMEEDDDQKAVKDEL
UniProt P49760, sequence (whole entry, looked up): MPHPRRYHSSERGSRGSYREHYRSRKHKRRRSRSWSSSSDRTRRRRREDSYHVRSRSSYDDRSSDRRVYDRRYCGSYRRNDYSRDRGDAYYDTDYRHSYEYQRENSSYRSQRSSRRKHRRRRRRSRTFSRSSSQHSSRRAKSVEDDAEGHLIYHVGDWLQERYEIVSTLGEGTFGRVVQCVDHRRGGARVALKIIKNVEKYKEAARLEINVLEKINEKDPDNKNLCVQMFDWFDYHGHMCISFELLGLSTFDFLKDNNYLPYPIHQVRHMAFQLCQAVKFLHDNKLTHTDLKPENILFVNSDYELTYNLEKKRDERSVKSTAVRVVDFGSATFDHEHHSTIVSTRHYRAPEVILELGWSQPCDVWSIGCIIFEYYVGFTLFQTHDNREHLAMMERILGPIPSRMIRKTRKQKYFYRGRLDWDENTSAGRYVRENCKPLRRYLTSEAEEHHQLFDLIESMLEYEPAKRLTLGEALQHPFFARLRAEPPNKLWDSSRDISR
UniProt P03951, sequence (whole entry, looked up): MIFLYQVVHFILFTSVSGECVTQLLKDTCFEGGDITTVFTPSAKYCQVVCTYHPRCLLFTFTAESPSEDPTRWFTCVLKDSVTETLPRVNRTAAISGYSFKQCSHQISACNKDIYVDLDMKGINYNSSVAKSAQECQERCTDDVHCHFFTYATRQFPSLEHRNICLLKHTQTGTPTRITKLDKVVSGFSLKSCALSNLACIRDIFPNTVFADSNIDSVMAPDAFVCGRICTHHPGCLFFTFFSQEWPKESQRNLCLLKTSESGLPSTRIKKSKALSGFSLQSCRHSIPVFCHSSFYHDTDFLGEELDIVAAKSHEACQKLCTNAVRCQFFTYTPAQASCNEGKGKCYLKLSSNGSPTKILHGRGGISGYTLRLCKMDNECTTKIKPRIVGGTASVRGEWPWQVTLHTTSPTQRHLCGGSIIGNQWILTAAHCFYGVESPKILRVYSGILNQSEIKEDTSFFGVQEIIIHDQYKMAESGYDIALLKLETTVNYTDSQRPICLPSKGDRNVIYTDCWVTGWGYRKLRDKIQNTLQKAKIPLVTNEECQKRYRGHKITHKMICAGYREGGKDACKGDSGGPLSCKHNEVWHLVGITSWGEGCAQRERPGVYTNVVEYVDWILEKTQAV
UniProt P09874, sequence (whole entry, looked up): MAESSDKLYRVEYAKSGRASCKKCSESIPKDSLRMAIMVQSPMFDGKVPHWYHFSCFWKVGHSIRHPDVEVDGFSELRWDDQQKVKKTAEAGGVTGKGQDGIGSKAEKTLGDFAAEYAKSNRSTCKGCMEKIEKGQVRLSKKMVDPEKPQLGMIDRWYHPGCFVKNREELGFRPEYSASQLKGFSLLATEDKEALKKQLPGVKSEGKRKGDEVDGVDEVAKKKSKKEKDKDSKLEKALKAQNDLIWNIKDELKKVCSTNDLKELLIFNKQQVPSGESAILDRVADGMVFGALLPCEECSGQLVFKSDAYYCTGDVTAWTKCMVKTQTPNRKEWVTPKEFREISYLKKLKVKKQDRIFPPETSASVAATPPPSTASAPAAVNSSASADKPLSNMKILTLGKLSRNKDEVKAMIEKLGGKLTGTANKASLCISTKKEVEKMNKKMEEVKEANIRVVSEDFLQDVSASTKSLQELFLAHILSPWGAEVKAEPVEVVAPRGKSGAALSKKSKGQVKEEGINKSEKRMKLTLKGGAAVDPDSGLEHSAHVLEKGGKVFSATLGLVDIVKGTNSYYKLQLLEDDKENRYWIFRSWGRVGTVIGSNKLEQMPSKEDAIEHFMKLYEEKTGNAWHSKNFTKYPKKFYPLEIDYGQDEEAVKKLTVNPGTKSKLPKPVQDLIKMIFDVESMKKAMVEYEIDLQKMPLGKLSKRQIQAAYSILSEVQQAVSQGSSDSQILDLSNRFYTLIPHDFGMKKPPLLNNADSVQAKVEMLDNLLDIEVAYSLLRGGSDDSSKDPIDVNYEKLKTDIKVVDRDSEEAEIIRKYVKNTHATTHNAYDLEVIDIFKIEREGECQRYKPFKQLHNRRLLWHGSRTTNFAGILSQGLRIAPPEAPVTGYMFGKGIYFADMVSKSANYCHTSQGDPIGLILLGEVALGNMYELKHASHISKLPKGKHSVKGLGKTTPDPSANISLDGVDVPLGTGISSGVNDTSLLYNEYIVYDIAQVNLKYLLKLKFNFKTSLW
UniProt P06396, sequence (whole entry, looked up): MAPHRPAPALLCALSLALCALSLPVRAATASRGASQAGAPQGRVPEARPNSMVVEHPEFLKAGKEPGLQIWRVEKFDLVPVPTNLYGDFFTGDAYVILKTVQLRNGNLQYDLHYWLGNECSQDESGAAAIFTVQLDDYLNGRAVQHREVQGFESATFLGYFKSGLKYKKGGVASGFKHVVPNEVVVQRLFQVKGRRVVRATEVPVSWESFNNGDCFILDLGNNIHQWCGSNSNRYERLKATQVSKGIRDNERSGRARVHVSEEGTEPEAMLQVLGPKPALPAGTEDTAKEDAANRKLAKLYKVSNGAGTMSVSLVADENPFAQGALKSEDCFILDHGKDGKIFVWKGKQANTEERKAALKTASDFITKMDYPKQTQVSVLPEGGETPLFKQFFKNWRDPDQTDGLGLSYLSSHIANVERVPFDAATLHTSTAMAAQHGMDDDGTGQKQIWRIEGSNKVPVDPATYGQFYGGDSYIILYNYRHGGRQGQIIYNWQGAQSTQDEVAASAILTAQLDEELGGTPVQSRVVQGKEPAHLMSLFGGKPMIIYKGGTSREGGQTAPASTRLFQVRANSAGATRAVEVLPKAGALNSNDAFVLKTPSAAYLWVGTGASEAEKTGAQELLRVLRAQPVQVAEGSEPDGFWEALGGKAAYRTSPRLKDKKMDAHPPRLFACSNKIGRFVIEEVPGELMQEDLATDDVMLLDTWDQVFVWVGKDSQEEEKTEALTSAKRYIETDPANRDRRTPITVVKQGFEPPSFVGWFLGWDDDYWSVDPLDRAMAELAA
UniProt O43914, sequence (whole entry, looked up): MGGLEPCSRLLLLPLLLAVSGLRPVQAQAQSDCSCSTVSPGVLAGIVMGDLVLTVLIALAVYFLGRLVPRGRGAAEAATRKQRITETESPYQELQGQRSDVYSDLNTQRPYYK
UniProt Q16696, sequence (whole entry, looked up): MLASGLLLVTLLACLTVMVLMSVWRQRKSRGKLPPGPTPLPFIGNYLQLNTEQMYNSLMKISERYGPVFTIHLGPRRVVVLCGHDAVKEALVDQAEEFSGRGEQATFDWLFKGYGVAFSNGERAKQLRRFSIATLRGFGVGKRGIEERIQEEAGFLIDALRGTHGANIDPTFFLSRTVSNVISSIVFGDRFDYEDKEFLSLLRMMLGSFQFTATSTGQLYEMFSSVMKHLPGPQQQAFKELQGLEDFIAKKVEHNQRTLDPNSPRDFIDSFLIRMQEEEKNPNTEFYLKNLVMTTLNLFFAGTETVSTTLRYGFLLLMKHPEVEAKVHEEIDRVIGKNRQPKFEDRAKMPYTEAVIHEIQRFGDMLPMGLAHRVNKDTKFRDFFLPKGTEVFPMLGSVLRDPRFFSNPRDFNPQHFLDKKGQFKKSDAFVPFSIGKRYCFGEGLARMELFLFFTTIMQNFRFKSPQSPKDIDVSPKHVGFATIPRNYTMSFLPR

With `CCn1c(-c2nc3ccc(C(=O)N4CCCC(N)C4)cc3n2C)cc2ccccc21` (stereo not shown) the IC50 was 25.1 µM (DRD1 (Homo sapiens, UniProt P21728); antagonist, TR-FRET).
`OC(c1cc(C(F)(F)F)nc2c(C(F)(F)F)cccc12)C1CCCCN1` (racemic) has an IC50 of 210 µM (mtr-1 (Escherichia coli, UniProt A0A3T0V9Y5)).
`CCCC(C)N1CCC(N(CCNC(=O)CCl)C(=O)Nc2cccc(C(F)(F)F)c2)CC1` (stereo not shown) gave an IC50 of 23.6 ± 1.76 µM (DCN1-like protein 1, PONY domain (Homo sapiens, UniProt Q96GG9); binding, inhibitor, TR-FRET; 24 h, racemic mixture).
The IC50 of `Nc1nccc(-c2c(-c3ccc(F)cc3)ncn2C2CCCCC2)n1` is reported as 0.0632 ± 0.014 µM (TGFBR1; binding, LanthaScreen kinase binding).
Under “number of kinases inhibited”, `O=C(NCCCNc1nc(Nc2cccc(CN3CCOCC3)c2)ncc1C1CC1)C1CCC1` is recorded as 13 (16-kinase panel; radiometric; 1 µM, ATP at Km; below 10% of control).
With `Cc1cccc(-c2nc(-c3ccc(S(C)(=O)=O)cc3)[nH]c2-c2ccncc2)c1` the IC50 was 1.17 ± 0.262 µM (TGFBR1; binding, LanthaScreen kinase binding).
`COc1c([C@H]2[C@H](C(=O)Nc3ccnc(C(N)=O)c3)O[C@@](C)(C(F)(F)F)[C@H]2C)ccc(F)c1F` gave an IC50 of 13 µM (GABA-gated chloride channel (human); binding).
`CC[C@H](CO)N(CCN(N=O)[C@H](CC)CO)N=O` — result for “revertant colonies per plate”: 32.7 ± 6 (Salmonella typhimurium; mutagenicity, Ames plate incorporation; TA1535; 1500 µg/plate, without S9, methanol).
`c1coc(CNc2ncnc3[nH]cnc23)c1` has an IC50 of 19 ± 5 µM (Gelsolin, peptide (GSN, Homo sapiens, UniProt P06396); gelsolin peptide aggregation, inhibitor, ThT fluorescence; 12 h, 37 °C).
`CC[C@@H]1[C@H](F)C(=O)N[C@@H]1COc1nccc2cc(C(N)=O)c(OC)cc12` gave an IC50 of over 5 µM (CAMK4 (Homo sapiens, UniProt Q16566); ATP-site probe binding, ActivX profiling; THP-1 cell lysate; Lys2 site).
With `C=Cc1ccccc1` the IC50 was over 200 µM (Cytochrome P450 2A13 (Homo sapiens, UniProt Q16696); enzyme activity, inhibitor; 20 min, pH 7.4).
With `NC(=O)c1cccc2c1O/C(=C\c1ccc(C(=O)N[C@@H]3CCNC3)s1)C2=O` the IC50 was 0.19 µM (PARP1 (Homo sapiens, UniProt P09874); inhibitor).
For `Cc1cc(O)c2c(c1)C(=O)c1cccc(O)c1C2=O`, the viability was 86.8 ± 15.6% (HK-2 co-cultured with HepaRG; MTT; 266.67 µM, 24 h; baseline: untreated control).
`Nc1nc(N)c2nc(CNc3ccc(C(=O)NCCc4ccccc4)cc3)cnc2n1` has an IC50 of over 100 µM (TYMS; inhibitor).
With `Fc1ccc(-c2nc(-c3ccccc3Br)[nH]c2-c2ccncc2)cc1` the IC50 was 0.0819 ± 0.0097 µM (TGFBR1; binding, LanthaScreen kinase binding).
The IC50 of `CC(=O)c1n[nH]c2ccc(-c3cnc4ccc(N(C)C5CCOCC5)nn34)cc12` is reported as 0.8 ± 0.2 µM (TYRO protein tyrosine kinase-binding protein (TYROBP, Homo sapiens, UniProt O43914); split luciferase reporter; human cells; 6 h, treatment 48 h after induction, together with: doxycycline induction).
Under “number of kinases inhibited”, `NS(=O)(=O)c1ccc(CNc2nc(Nc3cccc(CN4CCOCC4)c3)ncc2C2CC2)cc1` is recorded as 1 (16-kinase panel; radiometric; 1 µM, ATP at Km; below 10% of control).
The IC50 of `CC1=C(CC(=O)O)c2cc(F)ccc2/C1=C\c1ccc([S+](C)[O-])cc1` (stereo not shown) is reported as over 50 µM (P4HB (Homo sapiens, UniProt P07237); insulin reduction, inhibitor).
The IC50 of `NC1=NN(c2ccc(Oc3ccccc3)c(S(=O)(=O)O)c2)C(=O)C1` is reported as 47.9 µM (Protein lin-28 homolog A (Mus musculus, UniProt Q8K3Y3)).
`Cc1cccc(-c2nc(-c3ccc(N)cc3)[nH]c2-c2ccncc2)c1` gave an IC50 of 4.57 ± 1.68 µM (TGFBR1; binding, LanthaScreen kinase binding).
`COc1c(O[C@@H]2O[C@H](CO)[C@@H](O)[C@H](O)[C@H]2O)cc2c(c1O)C(=O)c1c(cc(C)c(O)c1OC)C2=O` gave a cell viability of 94 ± 4.69% (HK-2 co-cultured with HepaRG; MTT; 33.33 µM, 24 h; baseline: untreated control).
`COC(=O)C1CCN(C(=O)c2cccc(NCc3cnc4nc(N)nc(N)c4n3)c2)CC1` gave an IC50 of over 100 µM (TYMS; inhibitor).
The IC50 of `COc1ccc(F)c(CNC(=O)c2cnn(Cc3ccc(Cn4ccccc4=O)cc3)c2)c1F` is reported as over 40 µM (F11 (Homo sapiens, UniProt P03951)).
`NC(=O)C1CCN(C(=O)Cc2ccc(N(CCCO)Cc3cnc4nc(N)nc(N)c4n3)cc2)CC1` gave an IC50 of over 100 µM (TYMS; inhibitor).
`CN1CCN(c2ccc(Nc3ncc4cc(C#N)c(=O)n(C5CCCC5)c4n3)cc2)CC1` has an IC50 of 0.386 µM (CLK2 (Homo sapiens, UniProt P49760)).

Some of these lines once more:
The IC50 of `COc1ccc(F)c(CNC(=O)c2cnn(Cc3ccc(Cn4ccccc4=O)cc3)c2)c1F` is reported as over 40 µM (F11 (Homo sapiens, UniProt P03951)).
`NC(=O)C1CCN(C(=O)Cc2ccc(N(CCCO)Cc3cnc4nc(N)nc(N)c4n3)cc2)CC1` gave an IC50 of over 100 µM (TYMS; inhibitor).
`CN1CCN(c2ccc(Nc3ncc4cc(C#N)c(=O)n(C5CCCC5)c4n3)cc2)CC1` has an IC50 of 0.386 µM (CLK2 (Homo sapiens, UniProt P49760)).
